{"data": "Experimental data from different studies", "note": "Parts stem from different laboratories: compare values within a part only. Values joined by “and” are separate records of one study, mostly repeats; a detail may differ.", "UniProt Q99640, sequence (whole entry, looked up)": "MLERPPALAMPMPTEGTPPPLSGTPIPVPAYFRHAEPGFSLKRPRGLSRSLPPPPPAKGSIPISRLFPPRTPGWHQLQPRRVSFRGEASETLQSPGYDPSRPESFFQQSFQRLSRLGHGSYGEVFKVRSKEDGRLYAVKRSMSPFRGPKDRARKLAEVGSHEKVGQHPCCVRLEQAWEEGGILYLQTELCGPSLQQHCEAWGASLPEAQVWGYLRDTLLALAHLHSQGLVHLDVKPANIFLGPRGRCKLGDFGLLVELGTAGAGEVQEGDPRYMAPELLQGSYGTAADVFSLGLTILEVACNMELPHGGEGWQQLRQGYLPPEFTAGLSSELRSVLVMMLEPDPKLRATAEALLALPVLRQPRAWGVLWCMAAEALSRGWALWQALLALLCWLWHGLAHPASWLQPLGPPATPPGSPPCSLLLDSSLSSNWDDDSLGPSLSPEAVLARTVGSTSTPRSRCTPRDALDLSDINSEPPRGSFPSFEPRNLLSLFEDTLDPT"}
{"data": "Set 1", "Structure (SMILES)": "C[C@@H]1CN(c2ccc(-c3cc(C(=O)NCCOCCOCCOCCOCCNC(=O)Cn4cc(-c5[nH]cc(C(=O)N[C@@H](CC(N)=O)c6ccc(F)c(Cl)c6)c5-c5ccc(Cl)cc5F)cn4)ccc3F)cc2NC(=O)c2c[nH]c(=O)cc2C(F)(F)F)C[C@H](C)N1C", "read-out": "thermal unfolding", "method": "differential scanning fluorimetry", "tested at": "5.5 µM", "reading": "higher = more unfolded", "DCAF1": "DDB1- and CUL4-associated factor 1 (DCAF1, Homo sapiens, UniProt Q9Y4B6)", "UniProt Q9Y4B6, sequence (whole entry, looked up)": "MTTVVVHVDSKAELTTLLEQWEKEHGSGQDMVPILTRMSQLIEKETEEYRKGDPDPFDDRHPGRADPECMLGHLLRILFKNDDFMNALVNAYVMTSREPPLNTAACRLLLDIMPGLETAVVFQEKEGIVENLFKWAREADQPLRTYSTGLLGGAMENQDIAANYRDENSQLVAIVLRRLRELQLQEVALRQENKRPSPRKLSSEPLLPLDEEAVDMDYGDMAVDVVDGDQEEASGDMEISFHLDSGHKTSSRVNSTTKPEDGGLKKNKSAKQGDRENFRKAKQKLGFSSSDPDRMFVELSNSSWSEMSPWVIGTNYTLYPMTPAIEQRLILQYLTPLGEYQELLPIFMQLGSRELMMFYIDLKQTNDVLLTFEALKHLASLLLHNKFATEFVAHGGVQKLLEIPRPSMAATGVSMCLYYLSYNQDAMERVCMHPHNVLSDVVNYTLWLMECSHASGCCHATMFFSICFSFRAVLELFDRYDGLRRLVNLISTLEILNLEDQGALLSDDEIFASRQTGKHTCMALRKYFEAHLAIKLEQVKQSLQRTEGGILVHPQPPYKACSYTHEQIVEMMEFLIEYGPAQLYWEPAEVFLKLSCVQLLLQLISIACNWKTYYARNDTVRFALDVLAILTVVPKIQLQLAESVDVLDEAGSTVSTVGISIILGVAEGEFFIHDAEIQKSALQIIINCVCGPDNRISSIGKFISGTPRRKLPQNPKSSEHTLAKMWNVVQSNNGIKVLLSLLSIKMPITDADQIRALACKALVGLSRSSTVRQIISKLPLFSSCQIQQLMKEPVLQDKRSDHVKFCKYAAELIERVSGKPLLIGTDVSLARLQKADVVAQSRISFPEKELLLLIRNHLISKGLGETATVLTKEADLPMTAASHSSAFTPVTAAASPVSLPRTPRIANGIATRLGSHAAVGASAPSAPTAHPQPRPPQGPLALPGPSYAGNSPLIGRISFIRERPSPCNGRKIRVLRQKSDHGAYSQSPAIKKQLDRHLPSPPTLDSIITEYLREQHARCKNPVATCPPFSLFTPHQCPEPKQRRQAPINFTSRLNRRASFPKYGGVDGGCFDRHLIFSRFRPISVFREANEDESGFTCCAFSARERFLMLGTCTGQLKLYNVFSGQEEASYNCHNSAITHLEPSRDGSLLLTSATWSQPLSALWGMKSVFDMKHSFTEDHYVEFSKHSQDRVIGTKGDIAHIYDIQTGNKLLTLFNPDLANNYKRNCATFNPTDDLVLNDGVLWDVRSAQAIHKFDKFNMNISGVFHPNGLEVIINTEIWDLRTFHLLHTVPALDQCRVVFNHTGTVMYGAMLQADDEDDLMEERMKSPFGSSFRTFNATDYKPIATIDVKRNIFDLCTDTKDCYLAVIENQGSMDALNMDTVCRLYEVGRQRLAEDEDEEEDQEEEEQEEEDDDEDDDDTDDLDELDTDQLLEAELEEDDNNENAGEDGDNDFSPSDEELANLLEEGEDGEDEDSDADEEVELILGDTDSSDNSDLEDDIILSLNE"}
{"target": "WDR5 (Homo sapiens, UniProt P61964)", "setting": "83.61 °C", "SYPRO Orange fluorescence": "35500 a.u."}
{"target": "DCAF1", "setting": "70.41 °C", "SYPRO Orange fluorescence": "54000 a.u."}
{"target": "DCAF1", "setting": "94.41 °C", "SYPRO Orange fluorescence": "30500 a.u."}
{"data": "Further values, each from its own experiment"}
{"SMILES": "Cc1ccc(O)c(C)c1-c1cnc2[nH]c(-c3cnc(N4CCC5(CC4)CC(N4CCN(c6ccc(NC7CCC(=O)NC7=O)cc6F)CC4)CO5)nc3)cc2c1C#N (stereo not drawn)", "target or system": "PKMYT1 (Homo sapiens, UniProt Q99640)", "test system": "HuCCT-1", "setting": "37.04 nM", "measurement": "degradation", "result": "82.6%"}
{"SMILES": "Cc1ncsc1-c1ccc(C(CO)NC(=O)C2CC(O)CN2C(=O)C(C(C)C)n2cc(-c3ccc(COc4c(-c5c(C)c(F)cc6[nH]ncc56)c(C5CC5)cc5c(N6CC7CC6CN7)nc(OC6CCOCC6)nc45)cc3)nn2)cc1 (stereo not drawn)", "test system": "mouse PK-59 xenograft, plasma", "setting": "intravenous, 30 mg/kg, 48 h", "measurement": "plasma concentration", "result": "14.4 ng/mL"}
{"SMILES": "Cc1nc(C)c(C=[N+]([O-])C(C)(C)C)nc1C", "test": "Western blot", "test system": "MPTP mouse model, substantia nigra nuclei", "setting": "90 mg/kg, unit not given", "how to read": "baseline: β-actin", "measurement": "Nrf2 protein level", "result": "115 and 89.9 and 112"}
{"note": "For quick reference, copied from above (set 1):"}
{"target": "DCAF1", "setting": "70.41 °C", "SYPRO Orange fluorescence": "54000 a.u."}
